Measured values collected from several papers.
Each line is one published result; not all experiments were run side by side. ± gives the spread as reported.
Cell line: MDA-MB-231

CC(C)c1cccc(C(C)C)c1-n1c[n+](-c2c(C(C)C)cccc2C(C)C)c2c1-c1cccc3cccc-2c13.[Cl][Pd-]([Cl])[CH2]C=Cc1ccccc1 gave an IC50 of 4 µM (cell growth or viability, MTT; 72 h).
With Cc1nn(-c2ccccc2)c(O)c1C(c1cccs1)c1c(C)nn(-c2ccccc2)c1O the IC50 was 36.8 µM (cell growth or viability, MTT; 48 h).
For CC1OC(OC2CC(O)C3(CO)C4C(O)CC5(C)C(C6COC(=O)C6)CCC5(O)C4CCC3(O)C2)C(O)C(O)C1O (centres unmarked), the IC50 was 4.3 µM (cell migration, inhibitor).
The IC50 of CCCCCCCCCCCCN(CCCCCCCCCCCC)C1=[S+][Au-]2([S]1)[c]1ccccc1-c1cccc[c]12 is reported as > 100 µM (cell growth or viability, MTT; 72 h).
The IC50 of COC(=O)C1CN1S(=O)(=O)c1ccc(C)cc1 (centres unmarked) is reported as 61 µM (cell growth or viability, MTT; 48 h).
With N=C(N)NCCC[C@H](NC(=O)[C@H](CCCNC(=N)N)NC(=O)[C@@H]1CCCN1C(=O)[C@H](CCCNC(=N)N)NC(=O)[C@H](CCCNC(=N)N)NC(=O)[C@H](CCCNC(=N)N)NC(=O)[C@H](Cc1c[nH]c2ccccc12)NC(=O)[C@H](CCCNC(=N)N)NC(=O)[C@H](CCCNC(=N)N)NC(=O)[C@H](CCCNC(=N)N)NC(=O)[C@H](CCCNC(=N)N)NC(=O)[C@H](CCCNC(=N)N)NC(=O)[C@H](Cc1c[nH]c2ccccc12)NC(=O)[C@H](CCCNC(=N)N)NC(=O)[C@H](CCCNC(=N)N)NC(=O)[C@H](Cc1ccc(O)cc1)NC(=O)[C@H](CCCNC(=N)N)NC(=O)[C@H](CCCNC(=N)N)NC(=O)[C@H](CCCNC(=N)N)NC(=O)[C@@H](N)Cc1c[nH]c2ccccc12)C(N)=O the IC50 was 4.5 ± 0.1 µM (cell viability, CellTiter-Blue; 24 h, serum-free medium).
Cc1nn(-c2ccccc2)c(O)c1C(c1ccc([N+](=O)[O-])cc1)c1c(C)nn(-c2ccccc2)c1O has an IC50 of 39.6 µM (cell growth or viability, MTT; 48 h).
With C#CCCCC[C@H](C)C[C@@H](C)C(=O)N(C)[C@@H](C)C(=O)N1CCC[C@H]1C(=O)N(C)[C@H](C(=O)N(C)[C@H](C(=O)OC)C(C)C)C(C)C the IC50 was 3 µM (cell growth or viability, SRB).
The IC50 of CC(C)[C@@H]1NC(=O)[C@H](Cc2ccccc2)NC(=O)[C@H](Cc2ccc(O)cc2)NC(=O)CCSSC[C@@H](C(=O)N2CCC[C@H]2C(=O)N[C@H](CCCNC(=N)N)C(=O)NCC(N)=O)NC(=O)[C@H](CCC(N)=O)NC1=O is reported as 1.13 µM (colony formation).
For Cc1nn(-c2ccccc2)c(O)c1C(c1ccc(N(C)C)cc1)c1c(C)nn(-c2ccccc2)c1O, the IC50 was 26.4 µM (cell growth or viability, MTT; 48 h).
The IC50 of C[C@@H](N)[C@H](O)CCCCCCCC(=O)CCCCCCCCCCCCCC[C@@H](O[C@@H]1O[C@H](CO)[C@H](O)[C@H](O)[C@H]1O)[C@H](N)CO is reported as 2.15 µM (cell growth or viability, resazurin; 96 h).
With C1=CCCC=CCC1.C1=CCCC=CCC1.O=C(N=P12CN3CN(CN(C3)C1)C2)c1cccc[c]1[Pt+].O=C(N=P12CN3CN(CN(C3)C1)C2)c1cccc[c]1[Pt+].[Cl][Hg-]([Cl])[Cl].[Cl][Hg-]([Cl])[Cl].[Cl][Hg][Cl].[Cl][Hg][Cl] the IC50 was 14.6 µM (cell growth or viability, MTT; 24 h).
O=C1[O][Pt]2([OH])([OH])([NH]C3CCCCC3[NH]2)[O]C1=O (centres unmarked) gave an IC50 of > 100 µM (cell growth or viability, resazurin; 72 h).
The IC50 of CCCCCCCC(=O)NCC(=O)N[C@@H](C)C(=O)N[C@@H](CC(C)C)C(=O)N[C@](C)(CC)C(=O)N[C@@H](C)C(=O)N[C@H](C(=O)N[C@H](C=O)CC(C)C)[C@@H](C)CC is reported as 3 µM (cell growth or viability, MTT).
The IC50 of COC(=O)C1CN1S(=O)(=O)c1ccc(N)cc1 (centres unmarked) is reported as 64 µM (cell growth or viability, MTT; 48 h).
The IC50 of Cc1ccc(C(c2c(C)nn(-c3ccccc3)c2O)c2c(C)nn(-c3ccccc3)c2O)cc1 is reported as 28.3 µM (cell growth or viability, MTT; 48 h).
With [N-]=[N+]=NCCN1C(=O)c2cccc3cccc(c23)C1=O the IC50 was > 100 µM (cell growth or viability, MTT; 24 h).
With N.N.O=C([O][Pt]([Cl])([Cl])[O]C(=O)c1ccc(P(c2ccccc2)c2ccccc2)cc1)c1ccc(P(c2ccccc2)c2ccccc2)cc1.[Cl][Au].[Cl][Au] the IC50 was 3.2 µM (cell growth or viability, resazurin; 72 h).
For COC(=O)[C@@H](NC(=O)[C@@H](NC(=O)[C@@H](NC(=O)[C@@H]1CCCN1C(=O)[C@H](C)NC(=O)OC(C)(C)C)C(C)C)C(C)C)C(C)C, the IC50 was 33 µM (cell growth or viability, SRB).
The IC50 of CCCCc1ccc(S(=O)(=O)N2CC2C(=O)OC)cc1 (centres unmarked) is reported as 15 µM (cell growth or viability, MTT; 48 h).

Some of these lines once more:
Cc1nn(-c2ccccc2)c(O)c1C(c1ccc([N+](=O)[O-])cc1)c1c(C)nn(-c2ccccc2)c1O has an IC50 of 39.6 µM (cell growth or viability, MTT; 48 h).
With C#CCCCC[C@H](C)C[C@@H](C)C(=O)N(C)[C@@H](C)C(=O)N1CCC[C@H]1C(=O)N(C)[C@H](C(=O)N(C)[C@H](C(=O)OC)C(C)C)C(C)C the IC50 was 3 µM (cell growth or viability, SRB).
For CC1OC(OC2CC(O)C3(CO)C4C(O)CC5(C)C(C6COC(=O)C6)CCC5(O)C4CCC3(O)C2)C(O)C(O)C1O (centres unmarked), the IC50 was 4.3 µM (cell migration, inhibitor).
